# Results collected from several papers.
# Each line is one published result; not all experiments were run side by side. Numbers after ± are the reported error.
Compound,assay,test system,setting,scale,endpoint,value
CC[C@H](C)[C@H](NC(=O)[C@H](CCCCN)NC(=O)[C@H](CCC(=O)O)NC(=O)[C@H](CO)NC(=O)[C@H](Cc1ccccc1)NC(=O)[C@H](CC(C)C)NC(=O)[C@H](CCC(N)=O)NC(=O)[C@H](CO)NC(=O)[C@H](C)NC(=O)[C@H](CCCCN)NC(=O)[C@H](Cc1c[nH]cn1)NC(=O)[C@H](Cc1c[nH]c2ccccc12)NC(=O)[C@H](CCC(N)=O)NC(=O)[C@H](CCCCN)NC(=O)[C@H](CCCCN)NC(=O)[C@H](CC(C)C)NC(=O)CNC(=O)[C@H](C)NC(=O)[C@@H](NC(=O)[C@H](CO)NC(=O)[C@@H](N)CCSC)C(C)C)C(=O)N[C@@H](CO)C(=O)NCC(=O)N[C@@H](C)C(N)=O,circular dichroism,aqueous TFE,"50 µM, pH 7.4, 20 °C",,TFE midpoint,2.69 ± 0.05 M
CN1CCC[C@]1(C)/C=C/S(=O)(=O)NC(=O)Nc1c2c(cc3c1CCC3)CC=C2,,"human, plasma","oral, 12.5 mg twice daily of parent drug, metabolite of dosed drug",relative to: day 14 over day 1,AUC(0-tau) accumulation ratio,2.2
CN(O)C(=O)CCC(=O)NCCCN(CCCCN(CCCNC(=O)CCC(=O)N(C)O)C(=O)CCC(=O)N(C)O)C(=O)CCC(=O)N(C)O.[89Zr],radio-TLC,aqueous buffer,"3 d, pH 7.2, 37 °C, 89Zr-labelled complex, added: FeCl3 10-fold excess",,intact complex,97.8 ± 2.5%
CCCCN1C(=O)c2cccc3c(NCCCCCCN4CCOCC4)ccc(c23)C1=O,,dichloromethane,,,fluorescence quantum yield,0.99
N=C(N)NCCC[C@@H]1NC(=O)[C@H](CCCNC(=N)N)NC(=O)[C@H](CCCNC(=N)N)NC(=O)[C@H](CCCNC(=N)N)NC(=O)[C@H](Cc2ccc3ccccc3c2)NC(=O)[C@H](Cc2ccccc2)NC(=O)CCSSC[C@@H](C(=O)N[C@@H](CCCCNC(=S)Nc2ccc3c(c2)C(=O)OC32c3ccc(O)cc3Oc3cc(O)ccc32)C(N)=O)NC1=O,,human serum,"6 h, 37 °C",,degradation,48%
CCCCN1C(=O)c2cccc3c(NCCCN4CCOCC4)ccc(c23)C1=O,,chloroform,,,fluorescence quantum yield,0.64
COc1ccc(Nc2nc(Nc3ccc(OCCOCC[18F])cc3)ncc2Br)cc1,,"ICR mice, S180 tumour","intravenous, 370 kBq, 60 min",relative to: tumour over blood,uptake ratio,1.26
CC(=O)N([O-])CCCCCNC(=O)CCC(=O)N([O-])CCCCCNC(=O)CCC(=O)N([O-])CCCCCN.[89Zr+4],,mouse plasma,"7 d, 37 °C",,intact complex,78.4 ± 2%
CCCCN1C(=O)c2cccc3c(NCCN4CCOCC4)ccc(c23)C1=O,,methanol,,,absorption maximum,438 nm
Cc1noc(C)c1Cn1cc(N2C(=O)CN(Cc3cccc(OS(=O)(=O)O)c3)C2=O)cn1,,"Sprague-Dawley rat, male","oral, 10 mg/kg of parent drug, 12 h",,plasma concentration,402 ng/mL
[123I]c1ccc2nc(-c3ccc(-n4ccnn4)nc3)cn2c1,,"male Wistar rat, pancreas","intravenous, 4 MBq, 5 min",,tracer uptake,1.08 %ID/g
COc1cccc(OC)c1-c1cc(C(=O)NC2(C(=O)O)C3CC4CC(C3)CC2C4)nn1-c1ccc(C(=O)N(C)CCCN(C)C(=O)[C@H](CCCCNC(=O)[C@H](CC(C)C)NC(=O)C2OC2C(=O)O)NC(=O)CN2CCN(CC(=O)[O-])CCN(CC(=O)[O-])CCN(CC(=O)[O-])CC2)cc1C(C)C.[177Lu+3] (mixture of isomers),,"mouse, HT-29 xenograft, muscle",4 h post injection,,tissue uptake,0.39 %ID/g
Cc1ccc(CN2C(=O)/C(=N\c3ccc(Cl)cc3Br)c3ccccc32)cc1,,"mouse, blood",100 mg/kg,,MPV,5.34 ± 0.16 fL
COc1ccc(N2CCOCC2)c2sc(NC(=O)c3ccnc(CN4CCCC4)c3)nc12,Henderson-Hasselbalch equation,,,,intrinsic solubility,8 µg/mL
CC(C)Cc1ccc(C(C)C(=O)N[C@@H](CCCCNC(=O)CCOCCOCCOCCOCCOCCOCCNC(=O)CN2CCN(CC(=O)[O-])CCN(CC(=O)[O-])CCN(CC(=O)[O-])CC2)C(=O)Nc2cccc3c(C(=O)NCC(=O)N4CC(F)(F)C[C@H]4C#N)ccnc23)cc1.[177Lu+3] (some centres unmarked),,"mouse, U-87 MG tumour xenograft, lung",4 h,,tissue uptake,19.7 ± 2.35 %ID/g
CCCCN1C(=O)c2cccc3c(NCCCCCCCCCCN4CCOCC4)ccc(c23)C1=O,,ethyl acetate,,,absorption maximum,428 nm
O=C(Nc1cnccc1-c1ccc([18F])cc1)c1ccnc(NC(=O)C2CC2)c1,PET imaging,"FVB/NJ mice, both sexes, brain","intravenous, 10 min post-injection",,median SUV,0.38
Cc1cc(C)n(CCN(CCN)CCCCCCNC(=O)[C@@H](N)Cc2c[nH]cn2)n1.[99Tc+].[C-]#[O+].[C-]#[O+].[C-]#[O+],,"BALB/c nude mice, A549 xenograft, spleen","intravenous, 15 min",,tissue uptake,0.63 ± 0.02 %IA/g
O=C(O)/C=C\c1cc2ccoc2cc1O[C@@H]1O[C@H](CO)[C@@H](O)[C@H](O)[C@H]1O,post-procedure stability,rat plasma,"1000 ng/mL, 3 h, room temperature",,accuracy,112%
O=C(Nc1cnccc1-c1ccc([18F])nc1)c1ccnc(NC(=O)C2CC2)c1,,"FVB/NJ mouse, both sexes, liver","intravenous, 50 min",,SUV,8.4
CC(C)(C)[C@H](NC(=O)C(F)F)C(=O)N1C[C@H]2[C@@H]([C@H]1C(=O)N[C@H](C#N)C[C@@H]1CCCNC1=O)C2(C)C,,mouse liver microsomes,scaled to liver,,intrinsic clearance,331 mL/min/kg
O=C(NCc1ccc2c(c1)CN(C(=O)c1cc(-c3ccccc3)no1)C2)C1C=CC=CC=C1,,CD-1 mouse liver microsomes,"pH 7.4, added: NADPH",,"intrinsic clearance, scaled",254 mL/min/kg
O=Cc1c(O)c(C=O)c(O)c(C=O)c1O,"chemical stability, HPLC-MS",borate buffered saline,"pH 10.2, no N-acetyl-lysine",,degradation rate constant,0 h⁻¹
C/C(N)=N/C(=N\S(=O)(=O)c1ccc(C(F)(F)F)cc1)N1C[C@H](c2ccccc2)C(c2ccc(Cl)cc2)=N1,metabolic stability,"minipig, liver microsomes",,,half-life,1.35 h
C=C(NC(=O)c1csc(-c2nc3c(cc2O)-c2nc(cs2)C(=O)NC(C(C)O)C(=O)NC(=C(C)OC)c2nc(cs2)C(=O)NC2c4nc(cs4)C(=O)NC(COC(=O)c4c5c6c(cccc6n4O)COC(=O)C(OC4CC(C)(O)C(N(C)C)C(C)O4)C2OC5)c2nc-3cs2)n1)C(N)=O (centres unmarked),,"Sprague-Dawley rat, female, plasma","intravenous infusion, 6 mg/kg single dose",,MRT(0-last),1.16 h
Cc1c(Cc2cccc(OC(C)(C)C(=O)O)c2)c2ccc(C(=O)N[C@@H](C)c3cccc(C(C)(C)C)c3)cc2n1CC(C)C,metabolic stability,"mouse, liver microsomes",,,half-life,> 1 h
O=C(NCCN1C(=O)CCC1=O)[O][Pt]12([O]C(=O)NCCN3C(=O)CCC3=O)([NH][C@@H]3CCCC[C@H]3[NH]1)[O]C(=O)C(=O)[O]2,"AUC-based, measured: platinum","BALB/c mice, CT26 tumour",iv,relative to: tumour over serum,tumour to organ ratio,0.7
COc1ccnc(C(=O)N[C@H]2COC(=O)[C@H](Cc3ccccc3)[C@@H](OC(=O)C(C)C)[C@H](C)OC2=O)c1O,,"wheat, straw","foliar, dose not given",,residue level,≤ 0.08 mg/kg
N=C(N)NCCC[C@@H]1NC(=O)[C@H](CO)NC(=O)[C@@H](NC(=O)[C@H](CO)NC(=O)[C@H](CO)NC(=O)[C@H](Cc2c[nH]c3ccccc23)NC(=O)CNC(=O)[C@H](CO)NC(=O)[C@@H](N)Cc2c[nH]c3ccccc23)CSSC[C@@H](C(=O)NCC(=O)O)NC(=O)[C@H](CO)NC1=O,,"patients, plasma","intravenous, 10 mg/kg, thrice weekly, median",,clearance,850 L/h
CC(C)C[C@H](NC(=O)[C@@H](CCCCNC(=O)[C@@H](Cc1ccccc1)NC(=O)CCCCCCCNC(=O)CN1CCN(CC(=O)O)CCN(CC(=O)O)CCN(CC(=O)O)CC1)NC(=O)[C@H](Cc1ccc(O)cc1)NC(=O)[C@H](CO)NC(=O)[C@H](Cc1c[nH]c2ccccc12)NC(=O)[C@H](Cc1c[nH]cn1)NC(=O)[C@@H]1CCC(=O)N1)C(=O)N[C@@H](CCCNC(=N)N)C(=O)N1CCC[C@H]1C(=O)NCC(N)=O [indium-111 labelled],,"male athymic nude mice, DU-145 xenograft, tumour","intravenous, 0.037 MBq, 0.5 h",,tumour uptake,1.13 ± 0.36 %ID/g
O=C(O)CCCOc1ccc([18F])cc1-c1cc(-c2ccccc2C(F)(F)F)n(-c2ccccc2)n1,OLINDA/EXM from mouse data,"human adults, muscle",,,absorbed dose,16.2 µGy/MBq
CCCCN1C(=O)c2cccc3c(NCCCCCCCCN4CCOCC4)ccc(c23)C1=O,,acetonitrile,,,fluorescence lifetime,10.3 ns
CC(C)(O)c1ncc([S@](N)(=O)=NC(=O)Nc2c3c(cc4c2CCC4)CCC3)s1,"measured: blood, lymphatic system disorders",healthy human,"oral, dose not given, all active doses pooled",,subjects with TEAEs,4%
CC(C)=CCC1=C([O-])C(=O)c2ccccc2C1=O.CC(C)=CCC1=C([O-])C(=O)c2ccccc2C1=O.[Zn+2].c1ccc(-c2ccnc3c2ccc2c(-c4ccccc4)ccnc23)cc1,cyclic voltammetry,dichloromethane,"0.1 mM, added: 0.1 M Bu4NPF6",relative to: Ag/AgCl in saturated KOH,cathodic peak potential,-1.31 V
CN([O-])C(=O)CN1CCN(CC(=O)N(C)[O-])CCN(Cc2ccccn2)CC1.[89Zr+4],,"mouse, blood","intravenous, 4 h",,tracer uptake,1.05 %ID/g
CN1CCC[C@]1(C)/C=C/S(=O)(=O)NC(=O)Nc1c2c(cc3c1C(O)CC3)CCC2 (some centres unmarked),,"human, plasma","oral, 100 mg twice daily of parent drug, metabolite of dosed drug",relative to: day 14 over day 1,AUC(0-tau) accumulation ratio,1.7
COC1C=COC2(C)Oc3c(C)c(O)c4c(c3C2=O)C2=NC3(CCN(CC(C)C)CC3)NC2=C(NC(=O)C(C)=CC=CC(C)C(O)C(C)C(O)C(C)C(OC(=O)Nc2cccnn2)C1C)C4=O (centres unmarked),,"CD-1 mouse female, plasma","intravenous, 5 mg/kg",,clearance,2.27 mL/min/kg
C=CC(=O)Nc1cc(Nc2nccc(-c3cn(C)c4ccccc34)n2)c(OC)cc1N(C)CCNC,storage stability,human dried blood spots,"24 h, on ice, low QC level",,recovery,74.2%

# Some of these lines once more:
Compound,assay,test system,setting,scale,endpoint,value
CC(C)=CCC1=C([O-])C(=O)c2ccccc2C1=O.CC(C)=CCC1=C([O-])C(=O)c2ccccc2C1=O.[Zn+2].c1ccc(-c2ccnc3c2ccc2c(-c4ccccc4)ccnc23)cc1,cyclic voltammetry,dichloromethane,"0.1 mM, added: 0.1 M Bu4NPF6",relative to: Ag/AgCl in saturated KOH,cathodic peak potential,-1.31 V
CN([O-])C(=O)CN1CCN(CC(=O)N(C)[O-])CCN(Cc2ccccn2)CC1.[89Zr+4],,"mouse, blood","intravenous, 4 h",,tracer uptake,1.05 %ID/g
CN1CCC[C@]1(C)/C=C/S(=O)(=O)NC(=O)Nc1c2c(cc3c1C(O)CC3)CCC2 (some centres unmarked),,"human, plasma","oral, 100 mg twice daily of parent drug, metabolite of dosed drug",relative to: day 14 over day 1,AUC(0-tau) accumulation ratio,1.7
COC1C=COC2(C)Oc3c(C)c(O)c4c(c3C2=O)C2=NC3(CCN(CC(C)C)CC3)NC2=C(NC(=O)C(C)=CC=CC(C)C(O)C(C)C(O)C(C)C(OC(=O)Nc2cccnn2)C1C)C4=O (centres unmarked),,"CD-1 mouse female, plasma","intravenous, 5 mg/kg",,clearance,2.27 mL/min/kg
